# Published values pooled from the literature.
# Each numbered part is a random draw from the data of one study; scales do not carry over between parts.

# Set 1
# Target: Phosphate system positive regulatory protein PHO4, full length, GST-tagged (PHO4, Saccharomyces cerevisiae, UniProt P07270, residues 1-312)
# Method: competition protein-binding microarray
# Molecule type: double-stranded DNA, one strand shown
# Sample: in vitro
# Concentration: 2 µM
# Notes: whole 60-bp probe, lowest competitor level
# With: Cbf1 competitor, 0.05 µM
# Reading: higher = stronger binding
# Shared flanks, not repeated: … GTCTTGATTCGCTTGACGCTGCTG
# Target sequence (chain): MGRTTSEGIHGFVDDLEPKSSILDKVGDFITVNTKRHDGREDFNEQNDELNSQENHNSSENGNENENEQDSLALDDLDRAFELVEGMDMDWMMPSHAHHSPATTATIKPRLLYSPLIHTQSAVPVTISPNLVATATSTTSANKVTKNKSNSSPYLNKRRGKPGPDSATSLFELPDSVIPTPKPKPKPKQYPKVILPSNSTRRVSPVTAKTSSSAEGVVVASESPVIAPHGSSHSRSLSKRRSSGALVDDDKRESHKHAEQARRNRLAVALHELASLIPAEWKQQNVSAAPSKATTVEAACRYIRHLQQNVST
Strand,fluorescence intensity [a.u.]
CTTTCCCGATCTTTTCACGTGGTATTAGCACATTTG,13500
CGTCCTAGTGATTGTGCAGTGGGTGCCATGAGGAAG,6840
AAAGCGGTAATTTGCAAGGTGGGTGCAGATATCTAT,5110
CTTTGCACAATGCATTACGTGGGACCACATCCCTTT,7160
CATACCCAACCTTTTCACGTGTGTTAAGATATTTGT,14200

# Set 2
# Target: Histone acetyltransferase KAT6A, winged helix 1, GST fusion (KAT6A, Homo sapiens, UniProt Q92794, residues 1-85)
# Method: protein binding microarray
# Molecule type: double-stranded DNA, one strand shown
# Sample: in vitro
# Concentration: not given
# Notes: 8-mer, flanks averaged, mean of 2 arrays, mostly near background
# Baseline: not given
# Reading: higher = stronger binding
# Construct (chain): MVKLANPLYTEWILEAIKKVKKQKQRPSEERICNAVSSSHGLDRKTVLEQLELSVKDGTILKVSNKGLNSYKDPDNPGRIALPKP
Strand,E-score
GATATTTA,-0.0714
CTAGAATA,-0.166
GCCCGTAC,0.33
GAGCAGTA,-0.227
GGTCGCTA,0.145
CAGTTCCG,0.224
CGTAAGGC,0.0994
ACTGTACT,-0.129

# Set 3
# Target: Prothrombin, mature alpha-thrombin (F2, Homo sapiens, UniProt P00734)
# Method: aptamer microarray, sandwich
# Molecule type: DNA with 2'F-ANA
# Sample: in vitro
# Concentration: 200 nM
# Notes: whole 15-mer aptamer, many near background
# With: Cy3 exosite-II aptamer, 400 nM
# Reading: higher = stronger binding
# Strand: GGTTGGTGTGGTTGG
Modification,mean fluorescence intensity
2'F-ANA at 1 2 3 4 7 11 12 13,203 a.u.
2'F-ANA at 2 5 10 11 13 14 15,46.8 a.u.
2'F-ANA at 1 6 7 9 10 13 15,51.4 a.u.
2'F-ANA at 3 4 5 6 7 9 11 12 14 15,98.3 a.u.
2'F-ANA at 1 2 8 9 10 11 12,86.5 a.u.
2'F-ANA at 2 4 7 8 10 12 13,106 a.u.
2'F-ANA at 1 2 3 4 5 7 13 14,44 a.u.
2'F-ANA at 2 3 4 5 7 8 9 11 13 14 15,51.7 a.u.

# Mixed results
Substance,target,assay,system,conditions,how to read,endpoint,result
"PhoQ, residues 284 288 289 292 302 303 ALVSVA","PhoP, residues 12 14 15 18 19 YHFSH (Escherichia coli, UniProt P23836)","Sort-seq, measured: YFP reporter",E. coli,"PhoQ-PhoP variant library, with: 10 µM Mg2+","baseline: high Mg2+ state, higher = stronger signaling",fold induction,1.98

# Some of these lines once more (set 2):
Strand,E-score
GATATTTA,-0.0714
CTAGAATA,-0.166
GCCCGTAC,0.33
GAGCAGTA,-0.227
